# Published values collected from several papers.
# Lines come from different studies, so protocols differ.
# Cell line: COLO 205
SMILES,read-out,method,concentration,time,baseline,measurement,value
COc1cc(CNC(=O)C[C@H](C)CCC=C(C)C)ccc1OCc1cn(-c2ccc(Cl)cc2Cl)nn1,,SRB,10 µM,48 h,,growth percent,105%
CC(=O)OC[C@H]1O[C@@H](Sc2sc(C(=O)c3ccc(C)cc3)c(N)c2-c2nc3ccccc3s2)[C@H](OC(C)=O)[C@@H](OC(C)=O)[C@H]1OC(C)=O,,SRB,10 µM,48 h,untreated,growth,82.6%
CC/C=C\C/C=C\C/C=C\C/C=C\C/C=C\C/C=C\CCC(=O)Nc1ccn(C2OC(CO)C(O)C2(F)F)c(=O)n1 (centres unmarked),,NCI60 screen,,,,TGI,14.1 µM
O=C(CSc1nc(-c2ccccc2)n[nH]1)N1CCC(=C2c3ncccc3CCc3cc(Cl)cc(Br)c32)CC1,cell growth or viability,SRB,,,,IC50,> 120 µM
CCC(=C(c1ccc(Cl)cc1)c1ccc(OCCCN(C)C)cc1)c1ccc(OC)cc1,cell growth or viability,SRB,,,,GI50,0.92 µM
Nn1c(SCC(=O)N2CCC(=C3c4ncccc4CCc4cc(Cl)cc(Br)c43)CC2)nnc1-c1ccccc1,cell growth or viability,SRB,,,,IC50,< 15 µM
COc1cc(CNC(=O)C[C@H](C)CCC=C(C)C)ccc1OCc1cn(-c2ccccc2)nn1,,SRB,10 µM,48 h,,growth percent,99%
CC(=O)OC[C@H]1O[C@@H](Sc2sc(C(=O)c3ccc(Br)cc3)c(N)c2-c2nc3ccccc3s2)[C@H](OC(C)=O)[C@@H](OC(C)=O)[C@@H]1OC(C)=O,,SRB,10 µM,48 h,untreated,growth,63.8%
Cn1c(SCC(=O)N2CCC(=C3c4ncccc4CCc4cc(Cl)cc(Br)c43)CC2)nnc1-c1ccccc1,cell growth or viability,SRB,,,,IC50,> 120 µM
CC(=C(c1ccc(O)cc1)c1ccc(Cl)cc1)c1ccc(Cl)cc1,cell growth or viability,SRB,,,,GI50,2.44 µM
COc1cc(CNC(=O)C[C@H](C)CCC=C(C)C)ccc1OCc1cn(-c2cccc([N+](=O)[O-])c2)nn1,,SRB,10 µM,48 h,,growth percent,94.4%
O=C(CN1CCC(c2noc3cc(F)ccc23)CC1)N1CCC(=C2c3ncccc3CCc3cc(Cl)cc(Br)c32)CC1,cell growth or viability,SRB,,,,IC50,90 µM
COc1ccc2c(c1)/C(=N\Nc1nnc3n1N=C(c1ccccc1)CS3)C(=O)N2,cell growth or viability,SRB,10 µM,,,inhibition,17%
COc1cc(CNC(=O)C[C@H](C)CCC=C(C)C)ccc1OCc1cn(-c2ccccc2F)nn1,,SRB,10 µM,48 h,,growth percent,112%

# Excerpt of the above:
SMILES,read-out,method,concentration,time,baseline,measurement,value
COc1ccc2c(c1)/C(=N\Nc1nnc3n1N=C(c1ccccc1)CS3)C(=O)N2,cell growth or viability,SRB,10 µM,,,inhibition,17%
CC/C=C\C/C=C\C/C=C\C/C=C\C/C=C\C/C=C\CCC(=O)Nc1ccn(C2OC(CO)C(O)C2(F)F)c(=O)n1 (centres unmarked),,NCI60 screen,,,,TGI,14.1 µM
